Values quoted from earlier work, collected from citations in different studies.
Protocols differ between the studies behind these lines. “And” joins repeats or separate records; there may be more than shown. ± gives the spread as reported. ≈ marks a conversion by molar mass, not a printed value.

`CCC(CC)O[C@@H]1C=C(C(=O)O)C[C@H](N)[C@H]1NC(C)=O`: “volume of distribution” 1.3 L/kg (rat; dose not given).
`CC(C)(C)NC(=O)[C@@H](N)Cc1ccc(OP2(=O)CO[C@@H](Cn3ccc(N)nc3=O)CO2)cc1` (stereo partly shown) gave a half-life of 28.9 h (PBS; pH 6.5, Rp isomer).
The Cmax, mean of `CC(=O)C[C@@H](c1ccccc1)c1c(O)c2ccccc2oc1=O` is reported as 1.74 µg/mL (human, fasted; oral, 12.5 mg, single dose, together with: racemic warfarin 25 mg).
For `CC(C)(C)c1ccc(C(O)CCCN2CCC(C(O)(c3ccccc3)c3ccccc3)CC2)cc1` (stereo not shown), the Cmax was 0.002 to 0.568 µM (human, plasma; concentration not given, range of reported values).
For `COC(=O)[C@@H](N)Cc1ccc(OP2(=O)CO[C@@H](Cn3ccc(N)nc3=O)CO2)cc1` (stereo partly shown), the half-life was 4.27 h (PBS; pH 6.5, Rp isomer).
`C[C@@H]1[C@H](O)[C@@H](C)/C=C/C=C/CC/C=C/C=C/C=C/C=C/C(O[C@H]2O[C@H](C)[C@@H](O)[C@H](N)[C@@H]2O)CC2O[C@](O)(CC(O)C(O)CCC(O)CC(O)CC(O)CC(=O)O[C@H]1C)CC(O)C2C(=O)O` (stereo partly shown) gave a crossover pressure of roughly 24 MPa (solubility in supercritical CO2).
`COc1cc2c(Oc3ccc4[nH]c(C)cc4c3F)ccnc2cc1OCC1(N)CC1` — result for “minimum lethal dose”: 67.5 mg/kg (Beagle dog).
The AUC(0-inf) of `CCCCCOc1ccc(-c2ccc(-c3ccc(C(=O)N[C@H]4C[C@@H](O)[C@@H](O)NC(=O)[C@@H]5[C@@H](O)[C@@H](C)CN5C(=O)[C@H]([C@@H](C)O)NC(=O)[C@H]([C@H](O)[C@@H](O)c5ccc(O)cc5)NC(=O)[C@@H]5C[C@@H](O)CN5C(=O)[C@H]([C@@H](C)O)NC4=O)cc3)cc2)cc1` is reported as 58 ± 20.2 µg·h/mL (end-stage renal disease; 50 mg single dose).
`CNCCC(Oc1ccc(C(F)(F)F)cc1)c1ccccc1` (stereo not shown) gave a fraction unbound of 0.0018 (mouse).
For `NC(=O)c1nc(F)c[nH]c1=O`, the lung concentration was 216 µg/g (hamster; intraperitoneal, 25 mg).
`Cc1cc(N(CCOS(C)(=O)=O)CCOS(C)(=O)=O)ccc1C=O` — result for “plasma protein binding”: 74 to 85% (human plasma).
The fraction unbound of `O=C1CCc2ccc(OCCCCN3CCN(c4cccc(Cl)c4Cl)CC3)cc2N1` is reported as 0.001 (mouse).
`c1ccc2c(c1)ccc1c3ccccc3ccc21` has a water solubility of 0.012 µM (experimental mean).
With `C=CC=C` the Km was 200 µM and 390 µM (substrate; human liver microsomes).
The fraction unbound of `NS(=O)(=O)Cc1noc2ccccc12` is reported as 0.428 (dog).
`CNC(=O)Oc1cc(C)c(SC)c(C)c1` has a log Kow of 2.92.
For `CCCSc1ccc2nc(NC(=O)OC)[nH]c2c1`, the solubility was roughly 500 µg/mL (≈ 1880 µM) (simulated gastric fluid).
`Cc1ccc2cc(C)ccc2c1` — result for “amount in tissue”: 0.405 ng/well and 0.489 ng/well and 0.469 ng/well (zebrafish embryos, whole embryo; 84.2 ng/well, 48 hpf, single exposure).
Under “maximum tolerated dose ratio”, `Nc1ccc2c(c1)CN1C(=O)c3ccccc3C1=N2` is recorded as 60 (rat and dog; oral; relative to: rat over dog).
`CC(C)(C)NCC(O)COc1ccc(NC(=O)NC2CCCCC2)cc1` (stereo not shown) has a fraction unbound of 0.247 (dog).
`c1c[nH]cn1` gave a pKa of 14.4.
`Cc1cccc2c1ccc1cc(C(C)C)ccc12`: “amount in tissue” 27.5 ng/well and 23.5 ng/well (zebrafish embryos, whole embryo; 585.75 ng/well, 48 hpf, single exposure).
For `CN1Cc2c(N)cccc2C(c2ccccc2)C1` (stereo not shown), the fraction unbound was 0.072 (dog).
`O=S(=O)(O)C(F)(F)C(F)(F)C(F)(F)C(F)(F)C(F)(F)C(F)(F)C(F)(F)C(F)(F)F` — result for “plasma fraction unbound”: 0.0049 (plasma).
The fraction unbound of `CCCCN1CCCCC1C(=O)Nc1c(C)cccc1C` (stereo not shown) is reported as 0.211 (dog).
The t1/2 of `O=C(O)C(F)(F)C(F)(F)C(F)(F)C(F)(F)C(F)(F)C(F)(F)C(F)(F)F` is reported as 116 days (cancer patients; phase I dose-escalation trial).
`CCCCCOc1ccc(-c2cc(-c3ccc(C(=O)N[C@H]4C[C@@H](O)[C@@H](O)NC(=O)[C@@H]5[C@@H](O)[C@@H](C)CN5C(=O)[C@H]([C@H](O)CC(N)=O)NC(=O)[C@H]([C@H](O)[C@@H](O)c5ccc(O)c(OS(=O)(=O)O)c5)NC(=O)[C@@H]5C[C@@H](O)CN5C(=O)[C@H]([C@@H](C)O)NC4=O)cc3)no2)cc1` has a fu of less than 0.2% (human, plasma).
`NC1CCCCC1N.O=C([O-])C(=O)[O-].[Pt+2]` (stereo not shown) gave an AUC of 9.83 µg·h/mL (refers to: total platinum; mouse, plasma; intravenous, 8.34 mg Pt/kg).
`C=C[C@@H]1C[C@]1(NC(=O)[C@@H]1C[C@@H]2CN1C(=O)[C@H](C(C)(C)C)NC(=O)O[C@@H]1C[C@H]1CCCCCc1nc3ccc(OC)cc3nc1O2)C(=O)NS(=O)(=O)C1CC1` — result for “unchanged faecal excretion”: 73% (bile duct-cannulated rat; oral, dose not given).
Under “amount in tissue”, `Cc1ccc2ccccc2c1` is recorded as 0.664 ng/well and 0.625 ng/well and 0.662 ng/well (zebrafish embryos, whole embryo; 355.5 ng/well, 48 hpf, single exposure).
For `COC(=O)C1=C(C)NC(C)=C(C(=O)OCCN(C)Cc2ccccc2)C1c1cccc([N+](=O)[O-])c1` (stereo not shown), the fraction unbound was 0.006 (human).
Under “amount in tissue”, `c1cc2ccc3cccc4ccc(c1)c2c34` is recorded as 108 ng/well and 106 ng/well and 105 ng/well (zebrafish embryos, whole embryo; 505.6 ng/well, 48 hpf, single exposure).
The pKa of `O=C(O)C(F)(F)C(F)(F)C(F)(F)C(F)(F)C(F)(F)C(F)(F)C(F)(F)F` is reported as 1.31 (conductometry, literature value).
`CCOC(=O)C1=C[C@@H](OC(CC)CC)[C@H](NC(C)=O)[C@@H](N)C1` has a blood-to-plasma ratio of 1.42 (human).
`O=C(O)C(F)(F)C(F)(F)C(F)(F)C(F)(F)C(F)(F)F`: “plasma fraction unbound” 0.0068 (plasma).
For `Cc1ccc(C(=O)c2cc(O)c(O)c([N+](=O)[O-])c2)cc1`, the fraction unbound was 0.05 (dog).
`Brc1ccc(Oc2c(Br)cc(Br)cc2Br)c(Br)c1` gave a water solubility of 0.04 µg/mL (25 °C).
`O=S(=O)(c1ccc(O)cc1)c1ccc(O)cc1` gave a Tmax of 0.7 h (human volunteers; oral, 0.1 mg/kg deuterated compound).
With `CC(NCCc1ccc(O)cc1)C(O)c1ccc(O)cc1` (stereo not shown) the Cmax was 0.04 µM (human, plasma; concentration not given, median of reported values).
For `O=C(CCCCC1SCC2NC(=O)NC21)Nc1cccc([211At])c1` (stereo not shown), “intact compound remaining” read 74% (human serum; 12 h).

A few entries again:
`CCC(CC)O[C@@H]1C=C(C(=O)O)C[C@H](N)[C@H]1NC(C)=O`: “volume of distribution” 1.3 L/kg (rat; dose not given).
`CC(C)(C)NC(=O)[C@@H](N)Cc1ccc(OP2(=O)CO[C@@H](Cn3ccc(N)nc3=O)CO2)cc1` (stereo partly shown) gave a half-life of 28.9 h (PBS; pH 6.5, Rp isomer).
The Cmax, mean of `CC(=O)C[C@@H](c1ccccc1)c1c(O)c2ccccc2oc1=O` is reported as 1.74 µg/mL (human, fasted; oral, 12.5 mg, single dose, together with: racemic warfarin 25 mg).
For `CC(C)(C)c1ccc(C(O)CCCN2CCC(C(O)(c3ccccc3)c3ccccc3)CC2)cc1` (stereo not shown), the Cmax was 0.002 to 0.568 µM (human, plasma; concentration not given, range of reported values).
For `COC(=O)[C@@H](N)Cc1ccc(OP2(=O)CO[C@@H](Cn3ccc(N)nc3=O)CO2)cc1` (stereo partly shown), the half-life was 4.27 h (PBS; pH 6.5, Rp isomer).
